Measurements gathered from unrelated publications.
Every numbered part comes from another study and shows a few of its results, in no order.

Block 1
Target: RING finger protein unkempt homolog, zinc fingers 1-6, GST-SBP tag (UNK, Homo sapiens, UniProt Q9C0B0, residues 30-357)
Technique: RNA Bind-n-Seq
Form: RNA
Medium: in vitro
Concentration: not given
Setting: RNA with constant flanks, human and mouse sites, ends assumed
Baseline: input RNA pool
Reading: higher = stronger binding
Target sequence (chain): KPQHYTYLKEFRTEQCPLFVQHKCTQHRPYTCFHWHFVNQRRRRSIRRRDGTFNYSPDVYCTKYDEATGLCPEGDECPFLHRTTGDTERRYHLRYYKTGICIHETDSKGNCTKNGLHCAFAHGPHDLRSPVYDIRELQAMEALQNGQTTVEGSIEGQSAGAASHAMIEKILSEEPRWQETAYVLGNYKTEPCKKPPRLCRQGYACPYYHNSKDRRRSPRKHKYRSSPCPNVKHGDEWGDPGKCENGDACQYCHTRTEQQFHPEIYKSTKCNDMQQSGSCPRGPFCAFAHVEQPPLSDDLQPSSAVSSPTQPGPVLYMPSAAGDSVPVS
Oligonucleotide | bound/input enrichment
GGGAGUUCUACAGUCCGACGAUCUAGAUGUUCUGUCUCUAUGACAAUAUAUUUUAACUGACUUUCUAGAUGCCUUAAUAUUUGCAUGAUAAGCUAGUUUUCUUGGUUAGUAUUCUUGUUGUUUACGCAUGGAGUCACUAUUCCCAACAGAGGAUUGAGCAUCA | 0.554 ratio
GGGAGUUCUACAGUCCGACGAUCCGCUUCAACUCACGGAUCCGUGUGAAGACCUACACAGAUGAGCUGACGCCCAUUGAGUCUGCUGUCUCUGUGUUCAAGGCAGCCAACUGGUAUGAAAGGGAGAUCUGGGACAUGUUUGGACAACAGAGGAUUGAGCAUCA | 0.0813 ratio
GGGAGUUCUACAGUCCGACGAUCGCUACUGCAGCUGCACCUAUGAUUGGUUAUCCAAUGCCAACAGGAUAUUCCCAAUAAGACUUUAGAAGUAUAUGUAAAUGUCUGUUUUUCAUAAUUGCUCUUUAUAUUGUGUGUUAUCUGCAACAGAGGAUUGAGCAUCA | 1.26 ratio
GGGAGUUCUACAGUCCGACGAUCUCACAAGAUCUAUCAGCAGCACCUGCUGAACAGUAUCUUCAGGAGAAACUGCCAGAUGAAGUGGUUCUAAAAAUCUUCUCUUACUUGCUGGAACAGGAUCUUUGUAGAGCAGCUUGUGUACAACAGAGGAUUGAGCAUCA | 0.113 ratio
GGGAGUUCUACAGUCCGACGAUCAAGGAGCCGGUGCUGGUGGUGUCCUUCUCUGUCUGGGGCCUCGCUAUAAUUAUGCCCAUGAUUAGCCCCUACACCAAGUAUGCUAGCAUGAUCAACAAGGCCACACCCUACAACUACCCACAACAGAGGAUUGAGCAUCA | 0.171 ratio
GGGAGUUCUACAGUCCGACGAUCCGGGGCGGGGGCCACGGCCCCUCGGGCUAGCGAGGAUGAGCUUCCUCUUCAGCAGCCGCUCUUCGAAAACAUUCAAACCAAAGAAGAAUAUCCCUGAAGGGUCCCAUCAGUAUGAGCUCUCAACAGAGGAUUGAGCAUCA | 0.14 ratio
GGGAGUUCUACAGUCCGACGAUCAAUGCUGUUCCUUUGGGAACCACGGCCAAAGAAGAGAUGGAGCGGUUCUGGAAUAAGAAUAUAGGUUCAAACCGUCCUCUGUCUCCCCACAUUACUAUCUACAGUUGGUCUCUUCCCAUGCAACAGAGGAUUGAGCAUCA | 0.144 ratio
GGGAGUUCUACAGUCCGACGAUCUCUUACACCAUCCAGUCUGAACUGGGAGACUACGACCCAGAACUCCAUGGCGUGGAUUAUGUUAGUGAUUUUAAACUGGCCCCGAAUCAGACCAAGGAACUUGAAGAGAAGGUCAUGGAACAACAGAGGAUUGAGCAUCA | 0.505 ratio
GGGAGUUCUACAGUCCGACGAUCGGUGCACCUUCAUUUGUUAGAUUAUAUCAGUACCCCAACUUUGCUGGACCUCAUGCAGCUUUAGCUAAUAAAAGUUUCUUUAAGGCAGAUAAAGUUACAAUGCUGUGGAAUAAAAAAGCUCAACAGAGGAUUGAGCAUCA | 2.62 ratio
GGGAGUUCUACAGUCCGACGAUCGCACAGCAGAUGUAUGGCAGAGGUCCUUCCGCUCCUCACAUGGGGGGCUCCAUGCCCGGAUCUUUCCAAGGAAUUCCAGCAUCAGCAUCCCAUUCCUAUUCGAGUGCCUCCCAGCCCUACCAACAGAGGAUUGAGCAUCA | 0.112 ratio
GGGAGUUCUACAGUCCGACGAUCCUGUCUCCCUCUGGAGAGUGGAGACUGGAUCCGGCUGCGUCUUCCCUGUGUUCCCUGUUUCUUUAGGUACGAACCCUUUGUCUUUCCUGUGCCUUCUCAGCCCUGGAGAGGCAGAAAUCCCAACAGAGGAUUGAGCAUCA | 0.129 ratio

Block 2
Target: Sal-like protein 4, full length isoform A (SALL4, Homo sapiens, UniProt Q9UJQ4, residues 1-1053)
Sequence of UniProt Q9UJQ4 (whole entry, looked up): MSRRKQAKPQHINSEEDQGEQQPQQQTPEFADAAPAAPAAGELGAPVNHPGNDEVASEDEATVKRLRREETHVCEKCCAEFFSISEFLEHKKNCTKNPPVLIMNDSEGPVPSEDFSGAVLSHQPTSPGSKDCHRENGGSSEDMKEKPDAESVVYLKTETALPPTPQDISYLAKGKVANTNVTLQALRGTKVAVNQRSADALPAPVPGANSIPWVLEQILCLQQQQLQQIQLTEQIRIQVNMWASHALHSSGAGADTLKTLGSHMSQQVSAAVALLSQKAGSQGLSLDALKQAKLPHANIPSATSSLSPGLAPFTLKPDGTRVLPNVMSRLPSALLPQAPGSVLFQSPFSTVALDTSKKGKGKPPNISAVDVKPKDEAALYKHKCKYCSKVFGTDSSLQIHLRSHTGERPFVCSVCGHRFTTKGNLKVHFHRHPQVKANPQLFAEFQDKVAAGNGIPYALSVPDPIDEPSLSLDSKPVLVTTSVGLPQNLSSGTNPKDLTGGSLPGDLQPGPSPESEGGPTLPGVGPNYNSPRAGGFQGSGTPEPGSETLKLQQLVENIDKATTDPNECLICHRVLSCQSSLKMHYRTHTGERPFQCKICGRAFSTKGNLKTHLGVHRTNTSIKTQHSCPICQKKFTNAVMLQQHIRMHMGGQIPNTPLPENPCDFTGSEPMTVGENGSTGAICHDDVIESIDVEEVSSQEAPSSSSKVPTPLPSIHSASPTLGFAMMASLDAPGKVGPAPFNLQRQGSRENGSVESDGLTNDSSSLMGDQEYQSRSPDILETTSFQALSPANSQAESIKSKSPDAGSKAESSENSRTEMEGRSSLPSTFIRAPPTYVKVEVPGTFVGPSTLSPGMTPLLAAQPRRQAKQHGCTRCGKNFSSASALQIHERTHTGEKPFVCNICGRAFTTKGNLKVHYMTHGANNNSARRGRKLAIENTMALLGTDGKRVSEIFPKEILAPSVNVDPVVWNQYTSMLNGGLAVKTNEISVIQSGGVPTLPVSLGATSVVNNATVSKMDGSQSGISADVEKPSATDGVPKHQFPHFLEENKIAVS
Technique: universal PBM
Form: double-stranded DNA, one strand shown
Medium: in vitro
Concentration: 600 nM
Setting: 8-mer, flanks averaged, mean of replicates
Reading: higher = stronger binding
Oligonucleotide | E-score
GCCTTCCA | -0.0304
CCCCTAAG | -0.22
ACCGTCCA | -0.162
ATGTTCCA | -0.00758
GACGTTAA | 0.182
AGGGGGCG | -0.202
CCCGATCG | -0.24
GCTTCTAA | -0.123
CAATCGCC | -0.122
ACACGAAC | -0.122
AAGATCTA | -0.000365
ACGCGCAT | -0.035
ATGGAGGG | -0.116
ACGGAACA | -0.0581
CGGTTTAG | -0.206
TCTAACCA | 0.0544
GTGTTTAA | 0.11
GCTGCAGA | -0.192
ACCCTGAA | -0.0524
CGCCGAAA | -0.0894
CGTAGCTA | -0.0687
CTTCCCGC | -0.187
GTGTGCTA | -0.0362

Block 3
Target: Histone acetyltransferase KAT6A, winged helix 2, GST fusion (KAT6A, Homo sapiens, UniProt Q92794, residues 85-181)
Technique: protein binding microarray
Form: double-stranded DNA, one strand shown
Medium: in vitro
Concentration: not given
Setting: 8-mer, flanks averaged, mean of 2 arrays, mostly near background
Baseline: not given
Reading: higher = stronger binding
Residues (chain): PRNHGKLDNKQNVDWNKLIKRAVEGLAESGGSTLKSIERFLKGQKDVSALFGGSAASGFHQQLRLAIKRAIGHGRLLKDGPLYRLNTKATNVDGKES
Oligonucleotide | E-score
CTCCCTAA | 0.00611
ACCTTAGC | -0.0359
TCGTATAA | 0.0561
AAAAAGGA | 0.204
GCTGACAC | 0.157
CAATTACC | -0.177
CCTTGTTA | 0.0886
AACAGATG | -0.121
ACGCGAGA | 0.117
TAAGAGAA | 0.018
CCATTAGA | -0.075
CCCTCCGC | 0.163
GCGGCACA | 0.0948
TCCCTACA | -0.11
ATGGAGTC | 0.0247
ATACCCGG | 0.119
ATGAGCCC | -0.0374
ACTGGGAT | -0.0299
AGGTAACT | -0.0296
CCGCAAAG | 0.152
ATCCGGAT | 0.13
GATTGTGC | -0.00754
AGCCGGGC | 0.0974
AACCGGAC | -0.022
CTCAAGGC | 0.0916

Block 4
Target: RNA binding protein fox-1 homolog 2, RRM domain, GST-SBP tag (RBFOX2, Homo sapiens, UniProt O43251-10, residues 100-194)
Technique: RNA Bind-n-Seq
Form: RNA
Medium: in vitro
Concentration: 365 nM
Setting: natural RNA segment, single round, ends assumed
Baseline: no-protein control
Reading: higher = stronger binding
Construct (chain): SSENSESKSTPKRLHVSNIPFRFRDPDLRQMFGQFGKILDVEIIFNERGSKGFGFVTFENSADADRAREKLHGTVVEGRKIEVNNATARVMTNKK
Oligonucleotide | RBNS enrichment (R)
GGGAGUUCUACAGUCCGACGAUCCGAGGCUUCUCCCUUCUGCAAGGGGGUGGUCCCCUAUACCCGAGGAAUCUUUCUCUAGGGCACCUGGGCUCACAGCCUCCCUGGGCUCGGUUGUUCCUGCUGCCAAGUGCUGGAAUUCUCGGGUGCCAA | 0.237
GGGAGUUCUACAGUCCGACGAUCCUCGGCUGGUAGUGGCCCAGAUCUAUGCAGGCCCAUUAGCACACAUUCAAACCUUCCGGGGCUGUGACCUUCAAAGCUGUGUAAAUCAGUGUCAAGCACAUUAUAGUGUUUGGAAUUCUCGGGUGCCAA | 0.462
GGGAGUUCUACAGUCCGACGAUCUUGGAUCUGUGAACCCUGUACUGCGAGAAUCACAUAGUUCCAUAUAAGUUGUCCUUAGUCUCUUGUGCUGAUUCACUGUAUAAGCAUGAUCCUGGUAAUGCACUUUGGAUUGGAAUUCUCGGGUGCCAA | 2.7
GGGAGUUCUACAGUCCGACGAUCGACUGUCUUGCGGCUCCUCUAUAGGAAAGAGUACUGAUGCCUGUCCGGCCCCGGUUCCCCUCAGGUCCCUGUGCUCUGGUCAUUGCAGUGAUGGCUCACUCAGACUGUCCUGGAAUUCUCGGGUGCCAA | 0.294
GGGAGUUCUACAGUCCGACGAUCUUGAUGCGGGGCGGGUAAAGGGUAUUUUAACUUAGGGGUAGUUCCUGCUGUGAGUGGUUACAGCUGAUCCUCGGGAAGAACAAAGCUAAAGCUGCCUUUUGUCUGUUAUUUGGAAUUCUCGGGUGCCAA | 0.581
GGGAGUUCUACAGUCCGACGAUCUUAAAAGAUGCCUGGGUACCUUUUAUUUUAUGGCAUUUGUAUUAAAAAUAAAGUAUGAUGGUAAGAAAAUAGCUUUUAAACUGCUUCUUUUCAUUCACCCCACUUUCUUUUGGAAUUCUCGGGUGCCAA | 0.38
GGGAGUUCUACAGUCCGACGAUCCUGUUUGAACUUAAGAAGAAUAAACUACACUUUACUUUAUGUGCAGAAAUGAGACAUUCUGACAAUAAUGAAGUGCUUCAUGGUAUCUCAACAGUGUACUUUCUUGUAAUUGGAAUUCUCGGGUGCCAA | 0.386
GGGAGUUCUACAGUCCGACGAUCUUGAAUGCAUACUAAACUGUAAAAAAAAUUUAUUUACAGCAUUGAAAAUUCAGAAGUUAAUGGUUUUUUGUAAGCACAAAAGAAGUAUGGUAGAAAUUAAUCUUAACAAGUGGAAUUCUCGGGUGCCAA | 0.951
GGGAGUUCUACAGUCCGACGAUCACCAGCCUGCAGGUCUCUGAGCUAUAGCUUGACUUGGGAGUCUUGAUUCCCACAGAAAACGUCCUAAGACUUCUAGUCGUCAAGAAGACCUGAAGCAUCCUUGACCUUCAUGGAAUUCUCGGGUGCCAA | 0.377
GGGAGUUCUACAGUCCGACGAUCGAUACAAGAGCCCAUCUCUUCUCCUCACCUCACUGGAGCCACAGAAGCCAGGCAGCAGCUACAGGAGUUAUCAUCUGUGUCUUUUACCAUGAUUUGAUUUGUGUUCUCAAUGGAAUUCUCGGGUGCCAA | 0.311
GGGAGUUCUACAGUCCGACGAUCAGCAGCGCGUUCUGCGGGGCCCACUGAAGCAGAAGGCUUUUCCCUGGGGAACAGCUCUCGGUGUUGACUGCAUUGUUGCAGUCUCCCAAGUCUGCCCUGUUUUUUUAAUUUGGAAUUCUCGGGUGCCAA | 0.331
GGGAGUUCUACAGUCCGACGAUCGUAGGGUACAGAAUAGAGCGUGUGCUGUUGAUAAUAUCUCUCACCCGGAUCCCUCCUCACUUGCCCUGCCACUUUGCAUGGUUUGAUUUUGACCUGGUCCCCCACGUGUGUGGAAUUCUCGGGUGCCAA | 2.96
